# Assay results pooled from the literature.
# Lines come from different studies, so protocols differ. ± marks the error that the study gave.
Substance,assay,system,conditions,how to read,quantity,result
CCCC[C@H](NC(C)=O)C(=O)N[C@H]1CCC(=O)NC[C@@H](C(=O)N[C@@H](Cc2c[nH]c3ccccc23)C(N)=O)NC(=O)[C@H](CCCNC(=N)N)NC(=O)[C@@H](Cc2ccccc2)NC(=O)[C@H](Cc2c[nH]cn2)NC1=O,,"male rat, plasma","subcutaneous, 1 mg/kg/day, multiple doses, once daily",,CL/F,17.5 mL/min/kg
O=S1(=O)OC(c2ccc(O)cc2)(c2ccc(O)cc2)c2ccccc21,,Caco-2,"5 µg/mL, 1 h",,Papp A→B,6.1 ×10⁻⁶ cm/s
O=C(c1cc(Cc2n[nH]c(=O)c3ccccc23)ccc1F)N1CCN(C(=O)C2CC2)CC1,,"human patients, plasma","oral, 100 mg twice daily, day 1, alone",,AUC(0-10 h),6800 ± 2700 ng·h/mL
C[C@H](Oc1ccc(-c2nc(-c3ccc4[nH]cnc4c3)no2)cc1C(F)(F)F)C(F)(F)F,,"cynomolgus monkey, aneurysm model, plasma","0.1 mg/kg once daily, 4 h post-dose, 4 weeks dosing",,plasma concentration,24 ± 5.5 nM
CO[C@@H]1[C@H](O)[C@@H](CO)O[C@H]1n1ccc(=O)[nH]c1=O,,"male CD-1 mice, small intestine without content","intravenous, 1 mg/kg, 1 h",,share of tissue radioactivity,2.78%
N=C(N)NC(=O)c1cnn(-c2cccc3ncccc23)c1C1CC1,,"Sprague-Dawley rat male, hepatic S9","1 µM, pH 7.4, together with: without NADPH",,CLint,357 ± 25.1 mL/min/kg
COc1cc2c3c(n(CCCN4CCOCC4)c(=O)c2cc1OC)-c1cc2c(cc1C3=O)OCO2,,human cancer patients,"intravenous, 40 mg/m2/day, 0 to 24 h, day 5",relative to: dose,urinary excretion,0.16%
des-acyl ghrelin (human),,"Ghsr knockout mice, whole brain","intravenous, dose not given, 10 min, vascular space corrected",,tissue/serum ratio,7.98 µL/g
O=C(CCc1ccc(F)cc1)c1ccccc1OCC(O)CN1CCN(C(c2ccccc2)c2ccccc2)CC1 (stereo not shown),metabolic stability,"female mouse, liver microsomes","20 µM, pH 7.4",,scaled CLint,33.7 mL/min/kg
CNC(=O)c1cc(Oc2ccc(NC(=O)Nc3ccc(Cl)c(C(F)(F)F)c3)c(F)c2)ccn1,,"healthy male human, plasma","ocular, 0.75 mg single, first dose",,AUC(0-8 h),0.302 ng·h/mL
O=C(O)CNC(=O)c1cccc(O)c1,,"human hemodialysis patients, plasma",pre-treatment,relative to: hemodialysis over normal subjects,total plasma concentration ratio,34
C[C@H](Nc1ccc(C#N)n(C)c1=O)c1cc2cc(Cl)ccc2[nH]c1=O,,patients,"oral, 150 mg twice daily",,QTc interval increase,6.2 ms
COC(=O)Nc1nc2ccc(Sc3ccccc3)cc2[nH]1,shake-flask,soybean oil,37 °C,,thermodynamic solubility,0.09 ± 0.01 mg/g
C=C[C@@H]1C[C@]1(NC(=O)[C@@H]1C[C@@H](Oc2ncc(OC)c3ccc(Cl)cc23)CN1C(=O)[C@@H](NC(=O)OC(C)(C)C)C(C)(C)C)C(=O)NS(=O)(=O)C1CC1,,Caco-2,,,Papp A→B,3.4 ×10⁻⁶ cm/s
CCCCCCCCCCCCCCCC(=O)OC[C@H]1O[C@H](OC)[C@@H](O)[C@@H](O)[C@@H]1OC(=O)CCCCCCCCCCCCCCC,tensiometry,water,,,critical micelle concentration range,0.25 to 5 µM
CS(=O)(=O)Nc1ccc(C(=O)O[C@@H](Cc2c(Cl)c[n+]([O-])cc2Cl)c2ccc(OC(F)F)c(OCC3CC3)c2)cc1OCC1CC1,,"human, plasma","inhaled, 1200 µg once daily, day 1, single-dose dry powder inhaler",,tmax,2.1 h
CC(C)/N=c1\cc2n(-c3ccc(Cl)cc3)c3ccccc3nc-2cc1Nc1ccc(Cl)cc1,shake-flask,soybean oil,37 °C,,thermodynamic solubility,9.51 ± 0.21 mg/g
CC[C@H](C)[C@@H]1NC(=O)[C@H](CCCNC(=N)N)NC(=O)[C@H](CC(=O)O)NC(=O)[C@H](CC(C)C)NC(=O)[C@H](CCCCN)NC(=O)[C@H](CC(C)C)NC(=O)CNC(=O)[C@H](Cc2ccccc2)NC(=O)[C@@H](NC(=O)CNC(=O)[C@H](CCCCN)NC(=O)[C@H](CO)NC(=O)[C@H](CC(C)C)NC(=O)CNC(=O)[C@H](CCCCN)NC(=O)[C@H](CCCCN)NC(=O)[C@H](CC(N)=O)NC(=O)[C@H](C)NC(=O)CNC(=O)[C@H](CCCCN)NC(=O)[C@H](Cc2ccc(O)cc2)NC(=O)[C@H](CCCCN)NC(=O)[C@H](CCCNC(=N)N)NC(=O)[C@H](C)NC(=O)[C@H](CC(N)=O)NC(=O)[C@@H]2CCCN2C(=O)[C@H](Cc2c[nH]cn2)NC(=O)[C@H](CCC(=O)O)NC(=O)[C@H](CCC(N)=O)NC(=O)CNC(=O)[C@@H]2CCCN2)CSSC[C@@H](C(=O)O)NC(=O)CNC(=O)[C@H](CC(C)C)NC(=O)CNC(=O)[C@H](CO)NC(=O)[C@H](CCSC)NC(=O)[C@H](CO)NC(=O)CNC1=O,bridging ECLA,"human patients with achondroplasia, serum","subcutaneous, 15 µg/kg daily",,anti-drug antibody incidence,42%
C[C@]12CC[C@@H]3c4ccc(O)cc4C[C@@H](CCCCCCCCC[S+]([O-])CCCC(F)(F)C(F)(F)F)[C@H]3[C@@H]1CC[C@@H]2O (stereo partly shown),dynamic light scattering,50 mM potassium phosphate,pH 7.0,,critical aggregation concentration,0.5 µM

# A few entries again:
Substance,assay,system,conditions,how to read,quantity,result
N=C(N)NC(=O)c1cnn(-c2cccc3ncccc23)c1C1CC1,,"Sprague-Dawley rat male, hepatic S9","1 µM, pH 7.4, together with: without NADPH",,CLint,357 ± 25.1 mL/min/kg
COc1cc2c3c(n(CCCN4CCOCC4)c(=O)c2cc1OC)-c1cc2c(cc1C3=O)OCO2,,human cancer patients,"intravenous, 40 mg/m2/day, 0 to 24 h, day 5",relative to: dose,urinary excretion,0.16%
